# Experimental data from different studies.
# “And” joins repeats or separate records; there may be more than shown. ± marks the error that the study gave.
SMILES,assay,system,setting,how to read,quantity,result
CSCC[C@H](NC(=O)[C@H](CC(C)C)NC(=O)[C@H](Cc1c[nH]cn1)NC(=O)CNC(=O)[C@@H](NC(=O)[C@H](C)NC(=O)[C@H](Cc1c[nH]c2ccccc12)NC(=O)[C@H](CCC(N)=O)NC(=O)[C@H](CC(N)=O)NC(=O)CNC(=O)[C@H](Cc1ccc(O)cc1)NC(=O)[C@H](CCCNC(=N)N)NC(=O)[C@H](CCC(N)=O)NC(=O)[C@@H]1CCCN1C(=O)CN1CCN(CC(=O)O)CCN(CC(=O)O)CCN(CC(=O)O)CC1)C(C)C)C(N)=O [indium-111 labelled],radio-HPLC,"Swiss nu/nu mice, blood","intravenous, 1 nmol, 15 min",,intact peptide,4.3% and 2.4%
CCCC[C@H](NC(=O)CNC(=O)[C@H](CO)NC(=O)CNC(=O)c1ccc(NN)nc1)C(=O)N[C@H]1CC(=O)NCCCC[C@@H](C(N)=O)NC(=O)[C@H](Cc2c[nH]c3ccccc23)NC(=O)[C@H](CCCNC(=N)N)NC(=O)[C@@H](Cc2ccccc2)NC(=O)[C@H](Cc2c[nH]cn2)NC1=O [technetium-99m labelled],,"C57 mouse, B16/F1 melanoma",2 h,relative to: tumour over kidney,uptake ratio,1.9
COc1cc(OC)cc(C2=C3c4ccccc4C(c4ccc(NC(=S)S[C@@H]5O[C@H](CO)[C@@H](O)[C@H](O)[C@H]5O)cc4)=[N+]3[B-](F)(F)n3c2c2ccccc2c3-c2ccc(NC(=S)NCCOCCOCCOCCC(=O)N[C@@H](CC(C)C)C(=O)N[C@@H](C)C(=O)N[C@@H](CCCNC(=N)N)C(=O)N[C@@H](CC(C)C)C(=O)N[C@@H](CC(C)C)C(=O)N[C@H](C(N)=O)[C@@H](C)O)cc2)c1,,DMSO,,,emission maximum,696 nm
N=C(N)NCCC[C@@H]1NC(=O)[C@H](CCCCNC(=O)CNC(=O)CNC(=O)CNC(=O)CC[C@H](NC(=O)CNC(=O)CNC(=O)CNC(=O)[C@H](CCCCNC(=O)c2ccc(NN)nc2)NC(=O)c2ccc(NN)nc2)C(=O)NCC(=O)NCC(=O)NCC(=O)NCCCC[C@@H]2NC(=O)[C@@H](Cc3ccccc3)NC(=O)[C@H](CC(=O)O)NC(=O)CNC(=O)[C@H](CCCNC(=N)N)NC2=O)NC(=O)[C@@H](Cc2ccccc2)NC(=O)[C@H](CC(=O)O)NC(=O)CNC1=O [technetium-99m labelled],,"female athymic nude mice, kidneys","intravenous, 0.1 MBq, 1 h, U-87 MG glioma xenograft",,tissue uptake,8.49 ± 1.28 %ID/g
CCCC[C@H](NC(=O)CNC(=O)CNC(=O)c1ccc(NN)nc1)C(=O)N[C@H]1CC(=O)NCCCC[C@@H](C(N)=O)NC(=O)[C@H](Cc2c[nH]c3ccccc23)NC(=O)[C@H](CCCNC(=N)N)NC(=O)[C@@H](Cc2ccccc2)NC(=O)[C@H](Cc2c[nH]cn2)NC1=O [technetium-99m labelled],,"C57 mouse, B16/F1 melanoma, urine","intravenous, 4 h",,uptake,92.3 ± 1.73 %ID
N=C(N)NCCC[C@@H]1NC(=O)[C@H](CCCCNC(=O)CCOCCOCCOCCOCCNC(=O)CC[C@H](NC(=O)CCOCCOCCOCCOCCNC(=O)CC[C@H](NC(=O)CN2CCN(CC(=O)O)CCN(CC(=O)O)CCN(CC(=O)O)CC2)C(=O)NCCOCCOCCOCCOCCC(=O)N[C@@H](CCC(=O)NCCOCCOCCOCCOCCC(=O)NCCCC[C@@H]2NC(=O)[C@@H](Cc3ccccc3)NC(=O)[C@H](CC(=O)O)NC(=O)CNC(=O)[C@H](CCCNC(=N)N)NC2=O)C(=O)NCCOCCOCCOCCOCCC(=O)NCCCC[C@@H]2NC(=O)[C@@H](Cc3ccccc3)NC(=O)[C@H](CC(=O)O)NC(=O)CNC(=O)[C@H](CCCNC(=N)N)NC2=O)C(=O)NCCOCCOCCOCCOCCC(=O)NCCCC[C@@H]2NC(=O)[C@@H](Cc3ccccc3)NC(=O)[C@H](CC(=O)O)NC(=O)CNC(=O)[C@H](CCCNC(=N)N)NC2=O)NC(=O)[C@@H](Cc2ccccc2)NC(=O)[C@H](CC(=O)O)NC(=O)CNC1=O [indium-111 labelled],,"athymic nude mice, female, U-87 MG glioma xenograft, tumour and blood","intravenous, 1 h",relative to: tumour over blood,tumour to tissue ratio,46.4 ± 25.6
CCCCCCCCCCCCCCCCCC(=O)OC[C@H](NC(=O)[C@H](Cc1c[nH]c2ccccc12)NC(=O)[C@H](Cc1c[nH]cn1)NC(=O)[C@@H]1CCC(=O)N1)C(=O)N[C@@H](Cc1ccc(O)cc1)C(=O)N[C@H](CC(C)C)C(=O)N[C@@H](CC(C)C)C(=O)N[C@@H](CCCNC(=N)N)C(=O)N1CCC[C@H]1C(=O)NCC,,human plasma,"1 mg/mL, 5 weeks, 37 °C, from DMSO stock",,degradation,99.3%
CC(C)C[C@H](NC(=O)[C@@H]1CCCN1C(=O)[C@H](CCCCN)NC(=O)[C@@H](N)CO)C(=O)N1CCC[C@H]1C(=O)N[C@@H](CCC(=O)O)C(=O)N[C@H](C(=O)N[C@H](C(=O)N[C@@H](CC(=O)O)C(=O)N[C@@H](CCC(=O)O)C(=O)N[C@@H](Cc1ccc(O)cc1)C(=O)N[C@@H](Cc1cn(CCOCCOCCOCCNC(=O)CCc2ccc(O)c(CN(CCN(CC(=O)O)Cc3cc(CCC(=O)NCCCC[C@H](NC(=O)N[C@@H](CCC(=O)O)C(=O)O)C(=O)O)ccc3O)CC(=O)O)c2)nn1)C(=O)O)[C@@H](C)O)C(C)C [gallium-68 labelled],,"NMRI nu/nu mice, LNCaP tumour, spleen","10 MBq, high molar activity",,standardized uptake value,0.85 g/g
N=C(N)NCCC[C@@H]1NC(=O)[C@H](CCCCNC(=O)CCOCCOCCOCCOCCNC(=O)CN2CCN(CC(=O)O)CCN(CC(=O)O)CCN(CC(=O)O)CC2)NC(=O)[C@@H](Cc2ccccc2)NC(=O)[C@H](CC(=O)O)NC(=O)CNC1=O [indium-111 labelled],,"female athymic nude mice, eyes","intravenous, 3 µCi, 72 h, U-87 MG glioma xenograft",,tissue uptake,0.1 ± 0.01 %ID/g
CCCC[C@H](NC(=O)CCCCCCCNC(=O)c1ccc(NN)nc1)C(=O)N[C@H]1CC(=O)NCCCC[C@@H](C(N)=O)NC(=O)[C@H](Cc2c[nH]c3ccccc23)NC(=O)[C@H](CCCNC(=N)N)NC(=O)[C@@H](Cc2ccccc2)NC(=O)[C@H](Cc2c[nH]cn2)NC1=O [technetium-99m labelled],,"C57 mouse, B16/F1 melanoma, skin","intravenous, 4 h",,uptake,0.37 ± 0.11 %ID/g
N=C(N)NCCC[C@@H]1NC(=O)[C@H](CCCCNC(=O)CC[C@H](NC(=O)CCOCCOCCOCCOCCNC(=O)CC[C@H](NC(=O)CN2CCN(CC(=O)O)CCN(CC(=O)O)CCN(CC(=O)O)CC2)C(=O)NCCOCCOCCOCCOCCC(=O)N[C@@H](CCC(=O)NCCCC[C@@H]2NC(=O)[C@@H](Cc3ccccc3)NC(=O)[C@H](CC(=O)O)NC(=O)CNC(=O)[C@H](CCCNC(=N)N)NC2=O)C(=O)NCCCC[C@@H]2NC(=O)[C@@H](Cc3ccccc3)NC(=O)[C@H](CC(=O)O)NC(=O)CNC(=O)[C@H](CCCNC(=N)N)NC2=O)C(=O)NCCCC[C@@H]2NC(=O)[C@@H](Cc3ccccc3)NC(=O)[C@H](CC(=O)O)NC(=O)CNC(=O)[C@H](CCCNC(=N)N)NC2=O)NC(=O)[C@@H](Cc2ccccc2)NC(=O)[C@H](CC(=O)O)NC(=O)CNC1=O [indium-111 labelled],,"female athymic nude mice, lungs","intravenous, 3 µCi, 0.5 h, U-87 MG glioma xenograft",,tissue uptake,3.19 ± 0.78 %ID/g
CSCC[C@H](NC(=O)[C@H](CC(C)C)NC(=O)[C@H](Cc1c[nH]cn1)NC(=O)CNC(=O)[C@@H](NC(=O)[C@H](C)NC(=O)[C@H](Cc1c[nH]c2ccccc12)NC(=O)[C@H](CCC(N)=O)NC(=O)CCCCCNC(=O)CNC(=O)CNC(=O)CNC(=O)CSC(C)=O)C(C)C)C(N)=O [technetium-99m labelled],,"Swiss mouse, pancreas","intravenous, 18.5 MBq, 240 min",,tissue uptake,0.35 ± 0.05 %ID/g
N=C(N)NCCC[C@@H]1NC(=O)[C@H](CCCCNC(=O)CC[C@H](NC(=O)CCOCCOCCOCCOCCNC(=O)CN2CCN(CC(=O)O)CCN(CC(=O)O)CCN(CC(=O)O)CC2)C(=O)NCCCC[C@@H]2NC(=O)[C@@H](Cc3ccccc3)NC(=O)[C@H](CC(=O)O)NC(=O)CNC(=O)[C@H](CCCNC(=N)N)NC2=O)NC(=O)[C@@H](Cc2ccccc2)NC(=O)[C@H](CC(=O)O)NC(=O)CNC1=O [indium-111 labelled],,"female athymic nude mice, liver","intravenous, 3 µCi, 4 h, U-87 MG glioma xenograft",,tissue uptake,2.6 ± 0.37 %ID/g
CSCC[C@H](NC(=O)[C@H](CC(C)C)NC(=O)[C@H](Cc1c[nH]cn1)NC(=O)CNC(=O)[C@@H](NC(=O)[C@H](C)NC(=O)[C@H](Cc1c[nH]c2ccccc12)NC(=O)[C@H](CCC(N)=O)NC(=O)CNC(=O)[C@H](CO)NC(=O)CNC(=O)CCCCCCCNC(=O)CCC(=O)Nc1ccc(CNC23CNCCNCC(N)(CNCCNC2)CNCCNC3)cc1)C(C)C)C(N)=O [copper-64 labelled],,"female SCID mice, PC-3 xenograft, spleen","intravenous, 0.6 MBq, 24 h",,tissue uptake,0.931 ± 0.091 %ID/g

# Repeated from above:
SMILES,assay,system,setting,how to read,quantity,result
COc1cc(OC)cc(C2=C3c4ccccc4C(c4ccc(NC(=S)S[C@@H]5O[C@H](CO)[C@@H](O)[C@H](O)[C@H]5O)cc4)=[N+]3[B-](F)(F)n3c2c2ccccc2c3-c2ccc(NC(=S)NCCOCCOCCOCCC(=O)N[C@@H](CC(C)C)C(=O)N[C@@H](C)C(=O)N[C@@H](CCCNC(=N)N)C(=O)N[C@@H](CC(C)C)C(=O)N[C@@H](CC(C)C)C(=O)N[C@H](C(N)=O)[C@@H](C)O)cc2)c1,,DMSO,,,emission maximum,696 nm
